Results pooled from the literature.
± gives the spread as reported.
Medium: plasma

Structure (SMILES) | test system | conditions | AUC(0-24 h)
C#Cc1cccc(Nc2ncnc3cc(OCCOC)c(OCCO)cc23)c1 | human | erlotinib, day 29, normalised to erlotinib 150 mg, added: dovitinib | 342 ± 252 ng·h/mL
COc1cccc(-c2ccc(NC(=O)C3=C(C(=O)O)CCC3)c(F)c2)c1 | human male | oral, 30 mg once daily, day 13, geometric mean | 100000 ng·h/mL
CNCc1ccc(-c2[nH]c3cc(F)cc4c3c2CCNC4=O)cc1 | human cancer patients | intravenous, 18 mg/m2, day 4, added: temozolomide 200 | 2880 ng·h/mL
CCC(C)n1ncn(-c2ccc(N3CCN(c4ccc(OCC5COC(Cn6cncn6)(c6ccc(Cl)cc6Cl)O5)cc4)CC3)cc2)c1=O (stereo not shown) | human male | oral, 200 mg, day 3, geometric mean | 4700 ng·h/mL
Nc1ncc(-c2cnn(CCO)c2)c2scc(-c3ccc(NC(=O)Nc4cccc(F)c4)cc3)c12 | human patients | oral, 20 mg once weekly, first dose | 540 ng·h/mL
C#Cc1cccc(Nc2ncnc3cc(OCCOC)c(OCCOC)cc23)c1 | human | oral, dose not given, day 29, normalised to 150 mg dose, added: dovitinib | 1860 ± 1790 ng·h/mL
COc1ccc(-n2nc(C(N)=O)c3c2C(=O)N(c2ccc(N4CCCCC4=O)cc2)CC3)cc1 | healthy human subjects | oral, 2.5 mg twice daily, day 4, steady state, geometric mean, added: rivaroxaban 10 mg once daily | 935 ng·h/mL
CC(C)[C@H](C(=O)Nc1ccc(C(=O)NO)cc1)c1ccccc1 | human | oral, 30 to 80 mg, individual values | 4.93 to 27.6 µM·h
O=C(c1nc2n(n1)[C@H](c1ccccc1)C[C@@H]2F)C1CC1 | humans | oral, 75 mg single dose, high-fat meal | 9400 ng·h/mL
CNCc1ccc(-c2[nH]c3cc(F)cc4c3c2CCNC4=O)cc1 | human | oral, 300 mg, fasted, median | 5410 ng·h/mL

A few entries again:
Structure (SMILES) | test system | conditions | AUC(0-24 h)
CC(C)[C@H](C(=O)Nc1ccc(C(=O)NO)cc1)c1ccccc1 | human | oral, 30 to 80 mg, individual values | 4.93 to 27.6 µM·h
